Measurements from different studies.
A part holds a random share of what one study measured.
UniProt Q12866, sequence (whole entry, looked up): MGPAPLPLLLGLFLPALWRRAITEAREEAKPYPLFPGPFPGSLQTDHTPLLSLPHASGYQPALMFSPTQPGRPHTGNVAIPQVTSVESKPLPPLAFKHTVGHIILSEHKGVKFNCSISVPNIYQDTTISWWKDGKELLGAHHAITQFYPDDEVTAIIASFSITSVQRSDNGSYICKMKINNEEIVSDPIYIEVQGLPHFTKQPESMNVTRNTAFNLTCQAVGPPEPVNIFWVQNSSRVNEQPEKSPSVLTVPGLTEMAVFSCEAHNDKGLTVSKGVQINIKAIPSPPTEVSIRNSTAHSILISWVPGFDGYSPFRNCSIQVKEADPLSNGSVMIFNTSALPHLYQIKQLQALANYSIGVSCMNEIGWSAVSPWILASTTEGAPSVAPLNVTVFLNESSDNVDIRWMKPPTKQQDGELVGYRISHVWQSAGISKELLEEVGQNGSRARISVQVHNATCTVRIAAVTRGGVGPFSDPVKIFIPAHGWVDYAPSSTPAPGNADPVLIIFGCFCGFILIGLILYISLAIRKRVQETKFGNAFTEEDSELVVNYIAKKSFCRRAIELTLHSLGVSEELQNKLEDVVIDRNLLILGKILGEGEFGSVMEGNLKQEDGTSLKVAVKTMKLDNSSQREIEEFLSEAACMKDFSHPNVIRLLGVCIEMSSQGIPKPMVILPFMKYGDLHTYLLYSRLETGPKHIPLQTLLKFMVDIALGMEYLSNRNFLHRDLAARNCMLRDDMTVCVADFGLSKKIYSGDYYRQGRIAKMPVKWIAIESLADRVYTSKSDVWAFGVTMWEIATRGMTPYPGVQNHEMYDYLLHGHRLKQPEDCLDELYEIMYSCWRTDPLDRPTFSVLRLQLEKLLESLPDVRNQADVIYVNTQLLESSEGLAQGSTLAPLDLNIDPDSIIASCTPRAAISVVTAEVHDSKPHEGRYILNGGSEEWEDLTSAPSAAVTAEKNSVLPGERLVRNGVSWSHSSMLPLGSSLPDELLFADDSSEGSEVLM
UniProt P14616, sequence (whole entry, looked up): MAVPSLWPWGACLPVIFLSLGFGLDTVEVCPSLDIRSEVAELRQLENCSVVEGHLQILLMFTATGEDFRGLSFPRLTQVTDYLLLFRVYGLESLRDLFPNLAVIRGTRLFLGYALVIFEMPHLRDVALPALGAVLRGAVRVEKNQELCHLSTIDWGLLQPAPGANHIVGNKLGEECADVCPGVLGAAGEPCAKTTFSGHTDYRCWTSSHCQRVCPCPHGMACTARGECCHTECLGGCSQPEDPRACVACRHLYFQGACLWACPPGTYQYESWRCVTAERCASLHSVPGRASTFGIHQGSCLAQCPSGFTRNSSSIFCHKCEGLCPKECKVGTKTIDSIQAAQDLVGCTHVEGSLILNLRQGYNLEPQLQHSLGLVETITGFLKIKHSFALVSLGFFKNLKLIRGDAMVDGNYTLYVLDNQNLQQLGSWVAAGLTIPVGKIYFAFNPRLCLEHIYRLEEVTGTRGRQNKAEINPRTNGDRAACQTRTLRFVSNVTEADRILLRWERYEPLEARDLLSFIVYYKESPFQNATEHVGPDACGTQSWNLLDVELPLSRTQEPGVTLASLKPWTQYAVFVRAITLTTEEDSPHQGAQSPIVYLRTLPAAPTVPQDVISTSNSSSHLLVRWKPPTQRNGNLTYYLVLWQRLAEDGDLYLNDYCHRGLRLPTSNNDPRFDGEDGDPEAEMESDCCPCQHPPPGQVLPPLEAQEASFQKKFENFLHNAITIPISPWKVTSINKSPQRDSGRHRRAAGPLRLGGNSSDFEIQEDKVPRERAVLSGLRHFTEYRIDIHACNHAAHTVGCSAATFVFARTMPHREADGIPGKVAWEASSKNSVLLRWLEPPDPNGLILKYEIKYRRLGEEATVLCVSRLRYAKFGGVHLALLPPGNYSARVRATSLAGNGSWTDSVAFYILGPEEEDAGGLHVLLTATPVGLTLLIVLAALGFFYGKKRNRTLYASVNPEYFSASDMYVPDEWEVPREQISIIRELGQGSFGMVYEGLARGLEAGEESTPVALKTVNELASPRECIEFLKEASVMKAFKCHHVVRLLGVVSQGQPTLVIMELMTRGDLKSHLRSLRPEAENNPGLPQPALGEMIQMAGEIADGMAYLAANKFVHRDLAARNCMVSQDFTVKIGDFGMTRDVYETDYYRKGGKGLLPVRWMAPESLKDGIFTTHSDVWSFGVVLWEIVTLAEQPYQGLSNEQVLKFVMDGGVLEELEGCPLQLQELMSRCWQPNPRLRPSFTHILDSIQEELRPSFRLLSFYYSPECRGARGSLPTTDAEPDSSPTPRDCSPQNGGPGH
UniProt Q9H2X6, sequence (whole entry, looked up): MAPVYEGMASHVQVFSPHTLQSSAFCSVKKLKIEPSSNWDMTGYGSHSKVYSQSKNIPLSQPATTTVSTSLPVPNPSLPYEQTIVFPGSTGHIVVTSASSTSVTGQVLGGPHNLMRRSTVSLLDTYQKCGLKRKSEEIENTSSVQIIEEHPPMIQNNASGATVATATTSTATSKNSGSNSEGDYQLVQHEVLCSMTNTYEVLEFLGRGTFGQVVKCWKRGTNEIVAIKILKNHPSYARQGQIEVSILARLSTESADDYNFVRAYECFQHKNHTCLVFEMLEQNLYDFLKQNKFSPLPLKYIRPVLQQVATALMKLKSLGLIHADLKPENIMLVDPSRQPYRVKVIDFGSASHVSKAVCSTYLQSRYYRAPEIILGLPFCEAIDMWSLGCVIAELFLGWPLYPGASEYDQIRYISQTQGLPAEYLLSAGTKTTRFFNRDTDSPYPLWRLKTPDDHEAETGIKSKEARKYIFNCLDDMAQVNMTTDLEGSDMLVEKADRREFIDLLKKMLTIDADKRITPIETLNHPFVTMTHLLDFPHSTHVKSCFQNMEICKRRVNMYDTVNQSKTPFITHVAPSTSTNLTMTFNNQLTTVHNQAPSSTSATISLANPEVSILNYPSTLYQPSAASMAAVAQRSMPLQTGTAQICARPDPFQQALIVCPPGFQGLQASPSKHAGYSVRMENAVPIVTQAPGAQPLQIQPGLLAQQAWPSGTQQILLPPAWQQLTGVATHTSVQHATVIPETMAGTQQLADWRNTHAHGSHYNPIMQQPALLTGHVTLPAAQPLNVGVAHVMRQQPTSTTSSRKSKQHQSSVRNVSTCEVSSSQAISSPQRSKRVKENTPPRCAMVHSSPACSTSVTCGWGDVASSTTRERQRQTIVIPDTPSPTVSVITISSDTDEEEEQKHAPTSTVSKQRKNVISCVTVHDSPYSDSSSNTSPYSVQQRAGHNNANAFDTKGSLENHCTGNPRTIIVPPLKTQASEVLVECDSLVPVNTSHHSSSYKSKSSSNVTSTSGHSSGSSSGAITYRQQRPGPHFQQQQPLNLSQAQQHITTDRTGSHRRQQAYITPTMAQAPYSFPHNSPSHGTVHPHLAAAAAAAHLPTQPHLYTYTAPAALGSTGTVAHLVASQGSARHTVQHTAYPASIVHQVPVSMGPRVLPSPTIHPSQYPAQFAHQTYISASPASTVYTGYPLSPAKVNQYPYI

Block 1 — method: protein-binding microarray; molecule type: hairpin DNA; matrix: in vitro; concentration: not given; relative to: not given; reading: higher = stronger binding; quantity: median fluorescence
Target: FOXO3, forkhead domain (mouse, UniProt Q9WVH4, residues 31-263)
UniProt Q9WVH4, sequence (31-263, looked up): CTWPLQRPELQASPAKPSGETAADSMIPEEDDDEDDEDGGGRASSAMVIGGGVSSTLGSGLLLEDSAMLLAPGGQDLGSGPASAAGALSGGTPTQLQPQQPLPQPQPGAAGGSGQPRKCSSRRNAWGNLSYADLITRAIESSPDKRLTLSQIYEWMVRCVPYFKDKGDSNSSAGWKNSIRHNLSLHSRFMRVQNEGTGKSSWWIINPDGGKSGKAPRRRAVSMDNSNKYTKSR
Notes: whole hairpin DNA, median over replicate spots
GAGGCCATGCACACAACGCCTCCTGGCGTTGTGTGCATGGCCTCACACTC: 4710 a.u.
GAGGCCATGTACGCAACGCCTCCTGGCGTTGCGTACATGGCCTCACACTC: 4400 a.u.
GAGGCCGTGCAAACAACGCCTCCTGGCGTTGTTTGCACGGCCTCACACTC: 5370 a.u.
GAGGCCATGTAACGAACGCCTCCTGGCGTTCGTTACATGGCCTCACACTC (5mC at 13): 3880 a.u.
GAGGCCCTGTAACCAACGCCTCCTGGCGTTGGTTACAGGGCCTCACACTC: 4190 a.u.
GAGGCCATGCAAACAGCGCCTCCTGGCGCTGTTTGCATGGCCTCACACTC (5mC at 29): 5110 a.u.
GAGGCCATGTAACCCGCGCCTCCTGGCGCGGGTTACATGGCCTCACACTC (5mC at 15 29): 4370 a.u.
GAGGCCATGTACACAACGCCTCCTGGCGTTGTGTACATGGCCTCACACTC (5mC at 12): 4600 a.u.

Block 2 — method: universal PBM; molecule type: double-stranded DNA, one strand shown; matrix: in vitro; concentration: 600 nM; reading: higher = stronger binding; quantity: E-score
Target: Sal-like protein 4, full length isoform A (SALL4, Homo sapiens, UniProt Q9UJQ4, residues 1-1053)
UniProt Q9UJQ4, sequence (whole entry, looked up): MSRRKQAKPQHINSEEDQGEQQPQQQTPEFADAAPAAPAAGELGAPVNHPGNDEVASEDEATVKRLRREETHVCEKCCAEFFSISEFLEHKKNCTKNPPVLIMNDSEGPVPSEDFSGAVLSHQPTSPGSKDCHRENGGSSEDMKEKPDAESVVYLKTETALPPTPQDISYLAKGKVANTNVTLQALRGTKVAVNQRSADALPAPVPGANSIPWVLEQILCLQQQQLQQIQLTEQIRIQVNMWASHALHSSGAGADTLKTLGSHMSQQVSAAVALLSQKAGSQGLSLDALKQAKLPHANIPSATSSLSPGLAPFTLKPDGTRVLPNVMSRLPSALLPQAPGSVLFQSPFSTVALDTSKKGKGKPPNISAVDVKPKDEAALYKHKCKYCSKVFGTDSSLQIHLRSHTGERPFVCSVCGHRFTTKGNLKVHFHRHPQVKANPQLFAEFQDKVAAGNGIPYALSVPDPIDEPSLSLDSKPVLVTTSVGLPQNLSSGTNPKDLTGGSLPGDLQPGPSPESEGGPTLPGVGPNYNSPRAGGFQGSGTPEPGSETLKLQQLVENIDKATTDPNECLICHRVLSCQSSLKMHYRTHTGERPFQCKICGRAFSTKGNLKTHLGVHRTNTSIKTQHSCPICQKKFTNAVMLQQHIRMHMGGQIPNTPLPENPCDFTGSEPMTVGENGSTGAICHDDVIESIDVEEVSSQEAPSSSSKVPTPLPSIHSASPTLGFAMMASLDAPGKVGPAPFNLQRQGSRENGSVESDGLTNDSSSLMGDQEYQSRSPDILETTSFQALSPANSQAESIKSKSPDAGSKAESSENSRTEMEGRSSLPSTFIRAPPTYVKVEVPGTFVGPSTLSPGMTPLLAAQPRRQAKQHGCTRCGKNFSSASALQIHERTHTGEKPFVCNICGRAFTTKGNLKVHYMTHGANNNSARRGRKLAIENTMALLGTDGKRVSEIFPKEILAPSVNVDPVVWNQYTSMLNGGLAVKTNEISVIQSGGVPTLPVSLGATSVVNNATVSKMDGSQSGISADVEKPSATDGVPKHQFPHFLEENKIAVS
Notes: 8-mer, flanks averaged, mean of replicates
ACGACTAT: 0.189
GCCCGACC: -0.336
GGCACCGA: -0.271
AAAATATC: 0.368
AACGGCGG: -0.281
GCGCACGA: -0.233
CCTTTTCG: 0.105
CGCCAATA: 0.145

Block 3 — read-out: cell-free assay; method: competition with immobilised ligand; concentration: 1 µM; quantity: remaining binding
SMILES: O=C(N1CCS(=O)(=O)CC1)N1C[C@H](c2ccc(OC(F)(F)F)cc2)C[C@H](c2nc(C3CC3)no2)C1
MYLK3 (Homo sapiens, UniProt Q32MK0): 79%
STK17B (Homo sapiens, UniProt O94768): 100%
INSRR (Homo sapiens, UniProt P14616): 97%
EGFR (Homo sapiens, UniProt P00533, L861Q): 68%
NEK9 (Homo sapiens, UniProt Q8TD19): 100%
RIPK4 (Homo sapiens, UniProt P57078): 97%
Tyrosine-protein kinase ABL1, phosphorylated (ABL1, Homo sapiens, UniProt P00519, Q252H): 100%
MAPK8 (Homo sapiens, UniProt P45983): 82%
PIP5K1A (Homo sapiens, UniProt Q99755): 100%
SBK1 (Homo sapiens, UniProt Q52WX2): 90%
HIPK2 (Homo sapiens, UniProt Q9H2X6): 100%
TNK1 (Homo sapiens, UniProt Q13470): 100%
MAP3K6 (Homo sapiens, UniProt O95382): 91%
STK10 (Homo sapiens, UniProt O94804): 100%
PIKFYVE (Homo sapiens, UniProt Q9Y2I7): 100%
PRKACB (Homo sapiens, UniProt P22694): 100%
CDC42BPB (Homo sapiens, UniProt Q9Y5S2): 100%
MKNK2 (Homo sapiens, UniProt Q9HBH9): 94%

Block 4 — read-out: enzyme activity; action: inhibitor; concentration: 0.5 µM; relative to: control; quantity: remaining activity
SMILES: CC(C)[C@H](CO)Nc1nc(Nc2cc(N)cc(Cl)c2)c2ncn(C(C)C)c2n1
LCK (Homo sapiens, UniProt P06239): 70.2%
WEE1 (Homo sapiens, UniProt P30291): 70.8%
FGFR3 (Homo sapiens, UniProt P22607): 79.4%
MERTK (Homo sapiens, UniProt Q12866): 79.7%
ACVR1B (Homo sapiens, UniProt P36896): 107%
FRK (Homo sapiens, UniProt P42685): 70.3%
MST1R (Homo sapiens, UniProt Q04912): 122%
MAPKAPK2 (Homo sapiens, UniProt P49137): 92.8%
GRK7 (Homo sapiens, UniProt Q8WTQ7): 79.3%

A few entries again (block 3):
SBK1 (Homo sapiens, UniProt Q52WX2): 90%
HIPK2 (Homo sapiens, UniProt Q9H2X6): 100%
TNK1 (Homo sapiens, UniProt Q13470): 100%
MAP3K6 (Homo sapiens, UniProt O95382): 91%
STK10 (Homo sapiens, UniProt O94804): 100%
PIKFYVE (Homo sapiens, UniProt Q9Y2I7): 100%
